Measurements from different studies.
Parts stem from different laboratories: compare values within a part only. Substitutions count along the parent as printed.

Set 1
Target: CCNF, cyclin fold, Cln2 fusion (human)
Method: yeast growth competition, sequencing
Sample: yeast
Notes: strong parent motif
Relative to: not given
Reading: higher = stronger binding
Starting sequence: EXO1 docking peptide (human); KPECGRVQRAIFQ
Substitution	normalised enrichment score
P2A	1.86
Q8A	2.39
I11A	0.301
C4A	2.59
G5A	2.48
F12A	-0.22

Set 2
Target: Histone acetyltransferase KAT6A, winged helix 2, GST fusion (KAT6A, Homo sapiens, UniProt Q92794, residues 85-181)
Method: protein binding microarray
Form: double-stranded DNA, one strand shown
Sample: in vitro
Concentration: not given
Notes: 8-mer, flanks averaged, mean of 2 arrays, mostly near background
Relative to: not given
Reading: higher = stronger binding
Residues (chain): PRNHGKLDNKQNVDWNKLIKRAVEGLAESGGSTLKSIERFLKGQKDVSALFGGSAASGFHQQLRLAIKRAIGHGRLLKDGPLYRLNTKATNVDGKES
Sequence	E-score
AGTAGGAT	-0.107
CTGGTACA	-0.0959
CCTTGTCG	0.0617
CTAGTCGC	-0.0912
CGGTGCCA	0.137
CCCGCTAA	-0.0642
GGCCCCCA	-0.00035
GCTTGATA	0.0589
CGAGACCC	-0.00745
GACCATAA	0.0382
ACTTTATC	0.119
AAGGCTTC	-0.146
AAAAAGGG	-0.0211
GCGCACAA	0.156
ATGCACCG	0.0325
AACTTAAT	0.165
TAGGGTCA	-0.0418
CCAAAGCG	0.0181
CGGCGTCA	0.0796
AGTCAGGA	-0.0376
TGTATACA	0.0781
GTCGCCCA	0.0132
GTATGGAA	-0.0548
ACGCTTAG	-0.122
ATCAGATC	-0.118

Set 3
Target: RING finger protein unkempt homolog, zinc fingers 1-6, GST-SBP tag (UNK, Homo sapiens, UniProt Q9C0B0, residues 30-357)
Sequence of UniProt Q9C0B0 (30-357, looked up): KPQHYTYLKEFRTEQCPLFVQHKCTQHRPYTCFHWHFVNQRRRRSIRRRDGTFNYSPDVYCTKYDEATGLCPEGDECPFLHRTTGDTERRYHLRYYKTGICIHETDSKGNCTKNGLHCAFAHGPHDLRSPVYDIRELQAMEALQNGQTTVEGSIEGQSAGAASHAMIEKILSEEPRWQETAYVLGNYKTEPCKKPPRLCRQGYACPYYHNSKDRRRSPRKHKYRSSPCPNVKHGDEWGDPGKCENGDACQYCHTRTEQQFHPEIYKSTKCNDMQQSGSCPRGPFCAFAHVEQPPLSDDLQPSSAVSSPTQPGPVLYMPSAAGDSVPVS
Method: RNA Bind-n-Seq
Form: RNA
Sample: in vitro
Concentration: not given
Notes: RNA with constant flanks, ends assumed
Relative to: input RNA pool
Reading: higher = stronger binding
Shared flanks, not repeated: GGGAGUUCUACAGUCCGACGAUC … CAACAGAGGAUUGAGCAUCA
Sequence	bound/input enrichment
GCGAUAUCAAACAGAACUAUCUGGAAGCAUUUACUUCCAAUCCAAAACGGAGCUUUGUCCCGUGCUUGUCACAAAUCCACAUACUCUUCUCUUCCGGAUGACUACAAUUGCCAGGUGGAC	0.192 ratio
UUACCUUUAUAAUGUAGCAGUGAAGUAAAUCAUUUUAGAACUUAAUAUCCAACUGAUCACCGUACAUAUUGUAAAUAAAAUGUAUUUUGAUGACAGCUCAGUUGAAUAUGGAUAAUAUGU	2.2 ratio
AACAUUUUUGUCAGGAUUAUUUCCCGUAAAAACGUAGUGAGCACUUUUCAUAUACUAAUUCCGUUGUACAUUUAACUUUGUAUAAUACAGAAAUCUAAAUAUAUUUAAUGAAUUCAAGCA	1.55 ratio
AAGAUUUAAUAUAUAAAGAUUUAAUAUGAGUUAAACAUGUUUCUUAUUCUGUGAUCUCUAAUCCGAAAGUAAAAUUCUGUUGCCAUAAAUAUAAAAGAAAGUUUUCACUUAUAUUUUAGU	0.602 ratio
GCCAAUCCAGGUACAAACUGGGGGGAGACUUUAAAACCUGGCCCCCAACAGAACUGGGCCCGCAAACCCCAAGACAACAAUGUGAGUAACUGGGGAGGAGCUGCUUCUGUGAAACAGACA	0.12 ratio
UUAGCUUAUGGCAAUCAAGAGAGCAAGCUCAUCAUUCUGGCCAGUGGUGGACCCCAAGCCUCCGUAAACAUAAUGAGGACCUACACUUAUGAGAAGCUUCUGUGGACCACAAGCAGAGUG	0.352 ratio
UUCUAGCAGAGGCAAGAAUACAUAUUCAUAUACGCUUACUUAUGAAUUACCAUUUUAACAUUCCGAUAACAUGAAAUAUGGCCCUCUUGAAUUCUUGCUUUUAAGUUCCUUUUGAUAUGU	0.474 ratio
CAUAGGCCUGGGCUAGAGUGUCAAUGGCAGCCAGGGGUCUUCUCCAUCUCCAGAGGCCUUUACCGAGCCGGCCAGAAUAUACAUUCCCUUCUGGCAAAAACCACUGGCACCCAGGAUCAU	0.226 ratio

Set 4
Target: Sal-like protein 4, full length isoform B (SALL4, Homo sapiens, UniProt Q9UJQ4-2, residues 1-616)
Method: universal PBM
Form: double-stranded DNA, one strand shown
Sample: in vitro
Concentration: not given
Notes: 8-mer, flanks averaged, mean of replicates
Reading: higher = stronger binding
Sequence	E-score
AACGGCAG	-0.199
CTTAAAAC	0.0679
GTAACTTA	0.222
CAATCATC	0.0557
ATACTGTG	0.0515
ATACGCTA	0.0658
ATCAGCAC	0.0678
ACCAACCA	-0.0319
GGGCGCCA	-0.269
ACCAATTA	0.286
TAACGACA	0.142
CCTTAAAA	0.245
GCCATCCA	-0.236
AGGTCACT	-0.172
CGGTTTTA	-0.0895
CACTCAGG	-0.175

Single results of other studies
Molecule	target	assay	test system	setting	scale	endpoint	value
PhoQ, residues 284 288 289 292 302 303 SSTLSG	PhoP, residues 12 14 15 18 19 NHFIF (Escherichia coli, UniProt P23836)	Sort-seq, item: YFP reporter	E. coli	PhoQ-PhoP variant library, with: 10 µM Mg2+	relative to: high Mg2+ state, higher = stronger signaling	fold induction	10.4

Some of these lines once more (set 2):
Sequence	E-score
CTGGTACA	-0.0959
CCTTGTCG	0.0617
CTAGTCGC	-0.0912
CGGTGCCA	0.137
CCCGCTAA	-0.0642
GGCCCCCA	-0.00035
GCTTGATA	0.0589
